Measured values of several laboratories.
Compare with care: the assays were run in different laboratories. Values joined by “and” are separate records of one study, mostly repeats; a detail may differ. Numbers after ± are the reported error.

SMILES | tested on | test | test system | conditions | scale | endpoint | result
CC[C@H](C)[C@H](NC(=O)[C@H](CCCCN)NC(=O)CNC(=O)[C@H](CC(C)C)NC(=O)[C@H](Cc1ccccc1)NC(=O)[C@H](CCCCN)NC(=O)[C@H](CO)NC(=O)[C@H](Cc1ccccc1)NC(=O)[C@H](Cc1c[nH]c2ccccc12)NC(=O)[C@H](CCC(N)=O)NC(=O)[C@@H](NC(=O)[C@H](Cc1ccccc1)NC(=O)CCCCCNC(=O)CN1CCN(CC(=O)O)CCN(CC(=O)O)CCN(CC(=O)O)CC1)C(C)C)C(=O)N[C@@H](CCC(=O)O)C(=O)N1CCC[C@H]1C(=O)N[C@@H](CC(=O)O)C(=O)N[C@H](C(=O)N[C@@H](CO)C(=O)N[C@@H](CCC(N)=O)C(=O)N[C@H](C(=O)N[C@@H](CCC(N)=O)C(=O)N[C@@H](CC(=O)O)C(=O)N1CCC[C@H]1C(=O)N[C@@H](CC(N)=O)C(=O)N[C@@H](CC(=O)O)C(=O)N[C@@H](CCC(N)=O)C(=O)N[C@@H](Cc1ccc(O)cc1)C(=O)N[C@@H](CCC(=O)O)C(=O)N1CCC[C@H]1C(=O)N[C@@H](Cc1ccccc1)C(=O)O)C(C)C)C(C)C [copper-64 labelled] |  |  | C57BL/6 mice, large intestine | added: LPS 0.1 mg/kg intratracheal |  | tissue uptake | 2.81 ± 0.2 %ID/g
Cc1nc2cccc(OCC(C)(C)C(=O)NC(C)C)c2c(N)c1C(=O)[O-].[Na+] | Salmonella typhimurium | Ames preincubation | TA98 | 0.13 mg/plate, added: with rat liver S9 |  | revertant colonies | 46 ± 2 colonies/plate
NC(=O)[C@H](CCC(=O)O)NC(=O)[C@H](CCC(=O)O)NC(=O)[C@H](Cc1ccccc1)NC(=O)[C@H](Cc1ccccc1)NC(=O)OCC1c2ccccc2-c2ccccc21 |  | mass spectrometry | mouse, blood | intravenous, 10 mg/kg, single dose |  | half-life | 38.4 min
O=C1NC2(CC2)COc2ncc(F)cc2[C@H]2COCCN2c2ccn3ncc1c3n2 |  |  | Sprague-Dawley rat, female, serum | oral, 2.5 mg/kg/day, 4 weeks daily, end of treatment |  | gamma-glutamyltransferase activity | 0.1 U/L
C=Cc1c(C)c2cc3nc(c(CC(=O)[O-])c4[n-]c(cc5nc(cc1[n-]2)C(C)=C5CC)c(C)c4C(=O)[O-])C(CCC(=O)[O-])C3C.[Cu+2].[Na+].[Na+].[Na+] (centres unmarked) |  |  | Wistar rat, female | oral, 500 mg/kg daily, 28 days |  | serum creatinine | 0.37 ± 0.08 mg/dL
Cc1ccc(N2CC3CN(C)CC3C2)cc1C(=O)N[C@H](C)c1cc(-c2cnn(C)c2)nc2ccccc12 (some centres unmarked) | Vero E6 |  |  | 125 µM |  | viability | 1.63% and 1.8%
C[C@H](O)[C@@H](NC(=O)[C@H]1CCCN1C(=O)[C@@H](CCCCN)NC(=O)[C@@H](CO)NC(=O)[C@@H](Cc1ccc(O)cc1)NC(=O)[C@@H](CC(N)=O)NC(=O)CCOCCOCCOCCNC(=O)CN1CCN(CC(=O)O)CCN(CC(=O)O)CCN(CC(=O)O)CC1)C(=O)N[C@H](CC(=O)O)C(=O)N[C@H](CCCNC(=N)N)C(=O)N[C@H](CCC(N)=O)C(=O)N[C@H](Cc1ccc(O)cc1)C(=O)N[C@H](Cc1c[nH]cn1)C(=O)N[C@H](Cc1ccccc1)C(N)=O [gallium-68 labelled] |  |  | BALB/c nude mice U-87 MG tumour, liver | intravenous, 1.85 MBq, 2 h, radiolabelled |  | tissue uptake | 0.16 ± 0.04 %ID/g
COc1ccccc1-c1n[nH]c2nc(NC3CCN(C(=O)Cc4ccc(F)cc4F)CC3)ncc12 |  | bead binding, competition bead pull-down, refers to: LINJ.35.1240 | Leishmania donovani axenic amastigote extract | 10 µM | reference: vehicle | relative abundance | 1.02
Cc1ccc(N2CC3CCC(C2)N3C)cc1C(=O)N[C@H](C)c1cc(-c2cnn(C)c2)nc2ccccc12 | African green monkey cells |  |  | 3.906 µM |  | viability | 97.1%
CC(C(=O)O)n1nc(Cn2cc3cc(OCC[18F])c(Cl)cc3n2)c2ccccc2c1=O (racemic) |  | HPLC | nonhuman primate, plasma | 60 min post-injection | reference: plasma radioactivity | hydrophilic radiometabolite | 12%
CN1Cc2cc(Cl)ccc2-n2c(nnc2C2CCN(c3cccc([18F])n3)CC2)C1 |  |  | C57BL/6 mouse male, small intestine | intravenous, 3.7 MBq, 60 min |  | tissue uptake | 6.54 ± 2.97 %ID/g
CCCC[C@H]1C(=O)N(C)[C@@H](CCCC)C(=O)N[C@@H](CCCNC(=O)CN2CCN(CC(=O)O)CCN(CC(=O)O)CCN(CC(=O)O)CC2)C(=O)N[C@H](C(=O)NCC(N)=O)CSCC(=O)N[C@@H](Cc2ccc(O)cc2)C(=O)N(C)[C@@H](C)C(=O)N[C@@H](CC(N)=O)C(=O)N2CCC[C@H]2C(=O)N[C@@H](Cc2c[nH]cn2)C(=O)N[C@@H](CC(C)C)C(=O)N(C)CC(=O)N[C@@H](Cc2c[nH]c3ccccc23)C(=O)N[C@@H](CO)C(=O)N[C@@H](Cc2c[nH]c3ccccc23)C(=O)N1C [gallium-68 labelled] |  |  | NOD/SCID mice with CHO-hPD-L1 xenograft, stomach | 30 min post injection |  | tissue uptake | 2.41 ± 0.12 %ID/g
CC(CCC(=O)NCC(=O)O)C1CCC2C3CCC4CC(OC5OC(C(=O)O)C(O)C(O)C5O)CCC4(C)C3CC(O)C12C (centres unmarked) |  | refers to: glucuronide to parent ratio | women, plasma | dose not given | reference: T/C over T/T | ratio of metabolic ratios | 1.87
CSCC[C@H](N)C(=O)N[C@@H](C)C(=O)N[C@@H](CCCNC(=N)N)C(=O)N[C@@H](CCCNC(=N)N)C(=O)N[C@@H](CC(=O)O)C(=O)N[C@@H](CCCCN)C(=O)N[C@H](C(=O)N[C@@H](CC(=O)O)C(=O)N[C@@H](Cc1ccccc1)C(=O)N[C@@H](C)C(=O)N[C@@H](CCCNC(=N)N)C(=O)N[C@@H](CCCNC(=N)N)C(=O)N[C@@H](CCCNC(=N)N)C(=O)N[C@@H](CCCNC(=N)N)C(=O)NCCCCCC(=O)NCCCCC(NC(=O)CCCCCNC(=O)[C@H](CCCNC(=N)N)NC(=O)[C@H](CCCNC(=N)N)NC(=O)[C@H](CCCNC(=N)N)NC(=O)[C@H](CCCNC(=N)N)NC(=O)[C@H](C)NC(=O)[C@H](Cc1ccccc1)NC(=O)[C@H](CC(=O)O)NC(=O)[C@@H](NC(=O)[C@H](CCCCN)NC(=O)[C@H](CC(=O)O)NC(=O)[C@H](CCCNC(=N)N)NC(=O)[C@H](CCCNC(=N)N)NC(=O)[C@H](C)NC(=O)[C@@H](N)CCSC)[C@@H](C)O)C(=O)NCCCCC(NC(=O)C(CCCCNC(=O)CCCCCNC(=O)[C@H](CCCNC(=N)N)NC(=O)[C@H](CCCNC(=N)N)NC(=O)[C@H](CCCNC(=N)N)NC(=O)[C@H](CCCNC(=N)N)NC(=O)[C@H](C)NC(=O)[C@H](Cc1ccccc1)NC(=O)[C@H](CC(=O)O)NC(=O)[C@@H](NC(=O)[C@H](CCCCN)NC(=O)[C@H](CC(=O)O)NC(=O)[C@H](CCCNC(=N)N)NC(=O)[C@H](CCCNC(=N)N)NC(=O)[C@H](C)NC(=O)[C@@H](N)CCSC)[C@@H](C)O)NC(=O)CCCCCNC(=O)[C@H](CCCNC(=N)N)NC(=O)[C@H](CCCNC(=N)N)NC(=O)[C@H](CCCNC(=N)N)NC(=O)[C@H](CCCNC(=N)N)NC(=O)[C@H](C)NC(=O)[C@H](Cc1ccccc1)NC(=O)[C@H](CC(=O)O)NC(=O)[C@@H](NC(=O)[C@H](CCCCN)NC(=O)[C@H](CC(=O)O)NC(=O)[C@H](CCCNC(=N)N)NC(=O)[C@H](CCCNC(=N)N)NC(=O)[C@H](C)NC(=O)[C@@H](N)CCSC)[C@@H](C)O)C(N)=O)[C@@H](C)O (some centres unmarked) |  |  | C57BL/6 mouse female, ovary | dose not given, 3 h | reference: total | mean tissue distribution | 0.93%
CC(=O)N[C@H](C(=O)N[C@@H](CCCC(=O)OC(C)(C)C)C(=O)N[C@@H](CCC1CCCCC1)C(=O)N[C@@H](CC(=O)O)C(=O)COC(=O)c1c(C)cccc1C)C(C)(C)C |  |  | mouse, whole blood | intraperitoneal, dose not given, 3 h |  | concentration | 595 µM
O=C(c1cc(Cc2n[nH]c(=O)c3ccccc23)ccc1F)N1CC(CNC2CC2)C1 |  |  | male Wistar Han rat | oral, 60 mg/kg, day 1 |  | Cmax | 6950 ng/mL
CSCC[C@H](NC(=O)[C@@H](NC(=O)[C@H](CC(C)C)NC(=O)[C@@H](NC(=O)[C@H](Cc1c[nH]cn1)NC(=O)CCCCCNC(=O)[C@H](CCCNC(=N)N)NC(=O)[C@H](CCCNC(=N)N)NC(=O)[C@H](CCCNC(=N)N)NC(=O)[C@H](CCC(N)=O)NC(=O)[C@H](CCCNC(=N)N)NC(=O)[C@H](CCCNC(=N)N)NC(=O)[C@H](CCCCN)NC(=O)[C@H](CCCCN)NC(=O)[C@H](CCCNC(=N)N)NC(=O)CNC(=O)[C@@H](N)Cc1ccc(O)cc1)C(C)C)C(C)C)C(=O)N[C@@H](CS)C(=O)N[C@@H](C)C(=O)N[C@H](C(N)=O)[C@@H](C)O |  |  | C57BL/6J mice | Alzet osmotic pump, 3 mg/kg, 8 weeks |  | serum Phosphorus | 6.1 mg/dL and 7.1 mg/dL

A few entries again:
SMILES | tested on | test | test system | conditions | scale | endpoint | result
C=Cc1c(C)c2cc3nc(c(CC(=O)[O-])c4[n-]c(cc5nc(cc1[n-]2)C(C)=C5CC)c(C)c4C(=O)[O-])C(CCC(=O)[O-])C3C.[Cu+2].[Na+].[Na+].[Na+] (centres unmarked) |  |  | Wistar rat, female | oral, 500 mg/kg daily, 28 days |  | serum creatinine | 0.37 ± 0.08 mg/dL
Cc1ccc(N2CC3CN(C)CC3C2)cc1C(=O)N[C@H](C)c1cc(-c2cnn(C)c2)nc2ccccc12 (some centres unmarked) | Vero E6 |  |  | 125 µM |  | viability | 1.63% and 1.8%
C[C@H](O)[C@@H](NC(=O)[C@H]1CCCN1C(=O)[C@@H](CCCCN)NC(=O)[C@@H](CO)NC(=O)[C@@H](Cc1ccc(O)cc1)NC(=O)[C@@H](CC(N)=O)NC(=O)CCOCCOCCOCCNC(=O)CN1CCN(CC(=O)O)CCN(CC(=O)O)CCN(CC(=O)O)CC1)C(=O)N[C@H](CC(=O)O)C(=O)N[C@H](CCCNC(=N)N)C(=O)N[C@H](CCC(N)=O)C(=O)N[C@H](Cc1ccc(O)cc1)C(=O)N[C@H](Cc1c[nH]cn1)C(=O)N[C@H](Cc1ccccc1)C(N)=O [gallium-68 labelled] |  |  | BALB/c nude mice U-87 MG tumour, liver | intravenous, 1.85 MBq, 2 h, radiolabelled |  | tissue uptake | 0.16 ± 0.04 %ID/g
